# Measured values pooled from the literature.
# Values joined by “and” are separate records of one study, mostly repeats; a detail may differ. Numbers after ± are the reported error.
# CHRM5: Muscarinic acetylcholine receptor M5 (CHRM5, Homo sapiens, UniProt P08912)
# Sequence of UniProt P08912 (whole entry, looked up): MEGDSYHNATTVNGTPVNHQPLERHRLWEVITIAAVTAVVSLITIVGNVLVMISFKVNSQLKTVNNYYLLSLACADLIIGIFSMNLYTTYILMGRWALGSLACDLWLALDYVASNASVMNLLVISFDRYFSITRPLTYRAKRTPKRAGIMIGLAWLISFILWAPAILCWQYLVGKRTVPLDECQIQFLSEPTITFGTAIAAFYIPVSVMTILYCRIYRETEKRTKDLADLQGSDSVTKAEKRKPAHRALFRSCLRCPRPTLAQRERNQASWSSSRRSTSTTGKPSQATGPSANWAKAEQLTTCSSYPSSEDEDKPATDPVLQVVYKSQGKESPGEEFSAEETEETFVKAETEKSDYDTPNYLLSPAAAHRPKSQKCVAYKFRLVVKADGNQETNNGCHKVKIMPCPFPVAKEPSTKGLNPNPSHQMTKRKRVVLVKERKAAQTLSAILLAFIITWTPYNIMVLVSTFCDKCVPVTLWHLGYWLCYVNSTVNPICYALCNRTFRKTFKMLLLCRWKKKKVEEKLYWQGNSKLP
# Uncharacterized protein: Uncharacterized protein (Trypanosoma brucei brucei, UniProt Q386Q8)
# Gria1: Glutamate receptor 1 (Gria1, Rattus norvegicus, UniProt P19490)
# Sequence of UniProt P19490 (whole entry, looked up): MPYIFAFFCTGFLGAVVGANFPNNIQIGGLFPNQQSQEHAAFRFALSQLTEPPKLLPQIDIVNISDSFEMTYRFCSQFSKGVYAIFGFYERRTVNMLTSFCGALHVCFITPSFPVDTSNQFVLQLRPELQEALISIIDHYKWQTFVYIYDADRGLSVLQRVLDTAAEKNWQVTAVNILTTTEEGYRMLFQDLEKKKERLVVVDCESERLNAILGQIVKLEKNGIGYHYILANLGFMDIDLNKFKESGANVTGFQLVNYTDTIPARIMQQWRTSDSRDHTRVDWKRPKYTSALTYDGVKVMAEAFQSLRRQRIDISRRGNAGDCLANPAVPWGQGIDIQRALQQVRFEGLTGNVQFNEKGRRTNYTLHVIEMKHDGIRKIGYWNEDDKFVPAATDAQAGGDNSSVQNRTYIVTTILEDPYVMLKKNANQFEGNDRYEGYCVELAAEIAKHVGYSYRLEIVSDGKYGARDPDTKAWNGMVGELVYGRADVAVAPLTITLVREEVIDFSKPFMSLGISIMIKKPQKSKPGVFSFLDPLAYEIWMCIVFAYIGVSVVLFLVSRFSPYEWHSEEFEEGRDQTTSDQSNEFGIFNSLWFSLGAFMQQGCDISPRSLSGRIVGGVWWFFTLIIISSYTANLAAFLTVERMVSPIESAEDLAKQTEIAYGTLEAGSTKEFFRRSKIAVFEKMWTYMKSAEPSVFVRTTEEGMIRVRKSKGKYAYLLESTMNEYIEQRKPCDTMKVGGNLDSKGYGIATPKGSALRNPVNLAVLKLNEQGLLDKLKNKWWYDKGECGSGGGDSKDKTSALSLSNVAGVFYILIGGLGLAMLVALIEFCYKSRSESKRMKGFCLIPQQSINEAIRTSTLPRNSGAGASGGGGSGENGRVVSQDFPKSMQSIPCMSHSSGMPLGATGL
# CASP6: Caspase-6 (CASP6, Homo sapiens, UniProt P55212)
# Sequence of UniProt P55212 (whole entry, looked up): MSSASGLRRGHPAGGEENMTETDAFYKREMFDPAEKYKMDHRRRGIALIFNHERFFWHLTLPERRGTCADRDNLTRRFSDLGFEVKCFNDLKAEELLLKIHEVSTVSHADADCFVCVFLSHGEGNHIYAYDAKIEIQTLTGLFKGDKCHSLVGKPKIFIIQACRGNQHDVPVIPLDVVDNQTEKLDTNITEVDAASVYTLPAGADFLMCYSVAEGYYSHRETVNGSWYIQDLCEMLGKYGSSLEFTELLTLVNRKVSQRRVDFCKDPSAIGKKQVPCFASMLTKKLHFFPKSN
# glpG: Rhomboid protease GlpG (glpG, Escherichia coli, UniProt P09391)
# Sequence of UniProt P09391 (whole entry, looked up): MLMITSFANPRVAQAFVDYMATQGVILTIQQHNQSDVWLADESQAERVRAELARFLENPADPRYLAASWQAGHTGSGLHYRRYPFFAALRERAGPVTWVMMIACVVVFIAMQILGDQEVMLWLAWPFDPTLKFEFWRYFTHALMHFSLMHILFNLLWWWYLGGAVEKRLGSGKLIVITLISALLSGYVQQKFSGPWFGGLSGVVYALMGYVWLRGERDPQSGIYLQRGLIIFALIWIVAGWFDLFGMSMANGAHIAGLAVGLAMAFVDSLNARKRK
# TDP1: Tyrosyl-DNA phosphodiesterase 1 (TDP1, Homo sapiens, UniProt Q9NUW8)
# Sequence of UniProt Q9NUW8 (whole entry, looked up): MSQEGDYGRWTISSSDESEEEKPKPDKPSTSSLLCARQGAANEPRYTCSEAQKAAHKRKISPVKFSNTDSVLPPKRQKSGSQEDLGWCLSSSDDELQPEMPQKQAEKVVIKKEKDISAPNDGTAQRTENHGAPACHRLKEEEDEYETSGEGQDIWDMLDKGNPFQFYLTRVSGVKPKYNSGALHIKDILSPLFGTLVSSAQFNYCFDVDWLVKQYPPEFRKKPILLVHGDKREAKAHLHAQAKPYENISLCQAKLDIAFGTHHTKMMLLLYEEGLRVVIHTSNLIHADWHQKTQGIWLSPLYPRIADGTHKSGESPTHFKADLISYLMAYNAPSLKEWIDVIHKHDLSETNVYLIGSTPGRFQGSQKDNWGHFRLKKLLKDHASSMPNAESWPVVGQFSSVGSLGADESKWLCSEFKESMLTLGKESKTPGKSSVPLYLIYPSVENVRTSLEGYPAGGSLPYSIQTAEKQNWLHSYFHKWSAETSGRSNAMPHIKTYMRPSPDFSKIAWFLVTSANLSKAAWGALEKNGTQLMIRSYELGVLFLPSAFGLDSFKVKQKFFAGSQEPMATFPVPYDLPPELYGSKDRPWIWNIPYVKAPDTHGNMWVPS
# PLIN3: Perilipin-3 (PLIN3, Homo sapiens, UniProt O60664)
# Sequence of UniProt O60664 (whole entry, looked up): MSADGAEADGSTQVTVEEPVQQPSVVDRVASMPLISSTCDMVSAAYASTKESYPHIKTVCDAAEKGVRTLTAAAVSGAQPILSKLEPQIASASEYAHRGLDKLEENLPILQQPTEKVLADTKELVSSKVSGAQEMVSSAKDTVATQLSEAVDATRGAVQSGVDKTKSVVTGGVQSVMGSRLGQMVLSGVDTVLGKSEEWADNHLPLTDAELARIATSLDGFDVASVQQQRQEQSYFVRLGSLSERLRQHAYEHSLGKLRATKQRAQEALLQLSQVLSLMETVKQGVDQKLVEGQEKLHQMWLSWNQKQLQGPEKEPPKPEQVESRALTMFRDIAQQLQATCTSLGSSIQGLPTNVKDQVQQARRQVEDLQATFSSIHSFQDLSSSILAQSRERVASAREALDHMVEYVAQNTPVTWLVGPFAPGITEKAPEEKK
# TARDBP aggregated: TAR DNA-binding protein 43, aggregated (TARDBP, Homo sapiens, UniProt Q13148)
# Sequence of UniProt Q13148 (whole entry, looked up): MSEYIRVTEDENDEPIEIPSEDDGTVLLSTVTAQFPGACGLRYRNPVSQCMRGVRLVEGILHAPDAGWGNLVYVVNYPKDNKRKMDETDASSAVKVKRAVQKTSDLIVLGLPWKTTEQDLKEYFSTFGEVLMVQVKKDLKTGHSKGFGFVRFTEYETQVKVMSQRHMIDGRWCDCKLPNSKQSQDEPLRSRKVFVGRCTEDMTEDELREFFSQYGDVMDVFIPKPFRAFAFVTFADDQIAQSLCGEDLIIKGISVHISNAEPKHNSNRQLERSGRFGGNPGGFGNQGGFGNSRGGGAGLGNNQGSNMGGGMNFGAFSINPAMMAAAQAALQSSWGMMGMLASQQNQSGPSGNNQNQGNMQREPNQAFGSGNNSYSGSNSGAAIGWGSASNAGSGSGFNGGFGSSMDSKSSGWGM
# T1: dsDNA, duplex; chain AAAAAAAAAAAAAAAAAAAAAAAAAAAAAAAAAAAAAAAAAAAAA; chain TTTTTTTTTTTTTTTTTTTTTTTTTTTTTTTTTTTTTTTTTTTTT
# Sequence of UniProt O75909 (whole entry, looked up): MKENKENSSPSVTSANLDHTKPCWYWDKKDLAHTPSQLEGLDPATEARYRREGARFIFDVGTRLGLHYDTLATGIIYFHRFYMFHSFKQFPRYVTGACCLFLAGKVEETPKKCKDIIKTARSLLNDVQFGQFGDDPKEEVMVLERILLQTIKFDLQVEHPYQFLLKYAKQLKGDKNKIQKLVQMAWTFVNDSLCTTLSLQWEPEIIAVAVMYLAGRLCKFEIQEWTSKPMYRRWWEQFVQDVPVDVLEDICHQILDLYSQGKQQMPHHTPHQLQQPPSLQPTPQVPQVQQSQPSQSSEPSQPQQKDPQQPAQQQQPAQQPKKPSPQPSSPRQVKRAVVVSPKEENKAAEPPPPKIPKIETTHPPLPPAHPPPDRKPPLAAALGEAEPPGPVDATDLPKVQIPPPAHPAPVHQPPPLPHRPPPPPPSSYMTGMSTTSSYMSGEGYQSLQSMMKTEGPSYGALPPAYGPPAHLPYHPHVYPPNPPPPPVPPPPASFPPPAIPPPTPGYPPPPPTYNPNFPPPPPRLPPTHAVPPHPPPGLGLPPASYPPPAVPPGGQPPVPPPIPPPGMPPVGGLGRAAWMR
# Sequence of UniProt P46089 (whole entry, looked up): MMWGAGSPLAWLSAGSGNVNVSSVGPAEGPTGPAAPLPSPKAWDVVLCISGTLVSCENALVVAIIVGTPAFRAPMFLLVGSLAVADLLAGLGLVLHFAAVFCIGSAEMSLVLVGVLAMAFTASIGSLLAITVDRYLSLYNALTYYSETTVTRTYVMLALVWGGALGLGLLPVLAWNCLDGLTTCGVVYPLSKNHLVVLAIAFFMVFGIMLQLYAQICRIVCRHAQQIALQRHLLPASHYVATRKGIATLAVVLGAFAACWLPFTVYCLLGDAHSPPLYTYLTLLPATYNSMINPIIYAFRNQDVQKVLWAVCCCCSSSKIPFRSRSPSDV
# Sequence of UniProt P40261 (whole entry, looked up): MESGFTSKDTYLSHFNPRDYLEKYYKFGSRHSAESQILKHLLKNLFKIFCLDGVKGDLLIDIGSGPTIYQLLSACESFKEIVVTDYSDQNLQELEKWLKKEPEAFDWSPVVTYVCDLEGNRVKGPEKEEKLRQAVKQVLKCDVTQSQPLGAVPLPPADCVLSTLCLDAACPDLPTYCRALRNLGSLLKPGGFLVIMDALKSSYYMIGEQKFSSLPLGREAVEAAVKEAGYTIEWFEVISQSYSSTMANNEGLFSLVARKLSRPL
# Sequence of UniProt P00698 (whole entry, looked up): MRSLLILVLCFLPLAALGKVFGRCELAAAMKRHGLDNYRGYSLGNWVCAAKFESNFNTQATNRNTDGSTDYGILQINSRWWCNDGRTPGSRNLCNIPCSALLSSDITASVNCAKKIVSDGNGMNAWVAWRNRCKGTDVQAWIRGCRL
Compound,target,assay,system,setting,how to read,measurement,value
C=CC(=O)N1C[C@H](C)N(c2nc(OC[C@@]34CCCN3C[C@H](F)C4)nc3c(F)c(-c4ccc(F)c5sc(N)c(C#N)c45)c(C(F)(F)F)cc23)C[C@H]1C,"GTPase KRas, GppNHp-bound (KRAS, Homo sapiens, UniProt P01116, Q61R)",,,,relative to: Q61R-GppNHp,affinity loss,5 to 10 fold
CCCCCCCCCCCCCCCC(=O)OCC(CSC[C@H](N)C(=O)N[C@@H](CO)C(=O)N[C@@H](CCCCN)C(=O)N[C@@H](CCCCN)C(=O)N[C@@H](CCCCN)C(=O)N[C@@H](CCCCN)C(=O)NCCCCCC(=O)N[C@@H](CCCCN)C(=O)N[C@@H](CC(C)C)C(=O)N[C@H](C(=O)N[C@@H](Cc1ccccc1)C(=O)N[C@@H](Cc1ccccc1)C(=O)N[C@@H](Cc1ccc2ccccc2c1)C(=O)O)C(C)C)OC(=O)CCCCCCCCCCCCCCC (stereo partly drawn),"Amyloid-beta precursor protein, fibrillar amyloid-beta (APP, Homo sapiens, UniProt P05067)",TEM,,"2.0 eq, 18 h, fibril 6, added: APP 20 µM",,fibril diameter,25.5 nm
CCCCOc1ccc(C(=O)OCC[N+]2(C)CC=CCC2)cc1 (stereo not drawn),CHRM5,,membranes,"100 µM, 15 h, no carbachol",relative to: control,basal binding,1 ± 0.03 fold
COC(=O)[C@@]1(C)C=C(C(=O)Nc2cccc(C(=O)Nc3ccc(Nc4nccc(-c5cccnc5)n4)c(C)c3)c2)C(=O)CC1,"Mitogen-activated protein kinase 8, docking groove (MAPK8, Homo sapiens, UniProt P45983)","peptide binding, inhibitor, fluorescence polarization",,"6.25 µM, added: JIP1 peptide probe",,normalized fluorescence polarization,0.876
COc1ccc(OC)c(C2=Nn3c(nnc3-c3ccc(C)cc3)SC2)c1,Uncharacterized protein,"inhibitor, coupled colorimetric",Trypanosoma brucei,,,Hill slope,0.89
CC[C@H](C)[C@@H]1NC(=O)[C@H](Cc2ccc(O)cc2)NC(=O)[C@H](Cc2ccccc2)NC(=O)[C@H](C(C)C)NC(=O)[C@H](Cc2ccccc2)NC(=O)CSC[C@@H](C(=O)N[C@@H](Cc2c[nH]cn2)C(N)=O)NC(=O)[C@H](CC(N)=O)NC(=O)[C@H](Cc2c[nH]c3ccccc23)NC1=O,"Bromodomain-containing protein 4, BD1 (BRD4, Homo sapiens, UniProt O60885)","thermal stability, DSF",,50 µM,,ΔTm,-0.27 °C
COC(=O)Cc1cc2c(cc1C(=O)c1ccccc1Br)OCO2,Gria1,"glutamate-evoked current, whole-cell patch clamp",HEK-293T,"concentration not given, weighted tau, 500 ms pulse, added: glutamate",,desensitization time constant,2.3 ± 0.1 ms
N[C@H]1CC[C@H](Nc2nccc(-c3cccnc3Oc3ccc(NC(=O)NC4CC4)c4ccccc34)n2)CC1,"Cyclin-K (CCNK, Homo sapiens, UniProt O75909)",kinobead competition pulldown,HEK293/HCT116 lysate mixture,"10 µM, 1 h, 4 °C",lower = stronger competition,log2 LFQ intensity,21.9 and 22.4 and 22.6 and 22.2
CC[C@H](NC(=O)[C@H](CC(C)C)NC(=O)[C@H](CC(=O)O)NC(C)=O)C(=O)N[C@@H](CC(=O)O)C(=O)COC(=O)c1c(C)cccc1C,CASP6,"enzyme activity, inhibitor",,,,kinact/KI,11500 M⁻¹ s⁻¹
CCCCCCCCn1c(CC)c(C)[n+](CCCCCCCC)c1CCC,"T1, dsDNA, duplex",gel retardation,,"60-1500 µM, 2 h, K+ 100 mM",,binding,binds
Cc1ccc(S(=O)(=O)N2CC(NC(=O)c3cccc(C#N)c3)C2=O)cc1 (stereo not drawn),glpG,"enzyme activity, inhibitor, gel-based chimeric protein substrate",,,,IC50,inactive
O=C(O)c1ccc(Nc2c(-c3ccccc3)nc3ccc(CON=Cc4cn(-c5ccccc5)nn4)cn23)cc1,TDP1,"enzyme activity, inhibitor",,"100 µM, unpurified compound",,inhibition,13.8%
Cc1sc2c(c1C)C(c1ccc(Cl)cc1)=N[C@@H](CC(=O)NCCN(C)CCCCNC(=O)CCCCOc1cccc3c1C(=O)N([C@H]1CCC(=O)NC1=O)C3=O)c1nnc(C)n1-2,"BRD4 (Homo sapiens, UniProt O60885)","degrader, Western blot",MV4-11,50 nM,,onset of degradation,8 h
CC(=O)N[C@@H](CC(=O)O)C(=O)N[C@@H](CCCC(=O)O)C(=O)N[C@@H](CC(C)C)C(=O)N[C@@H](CC(=O)O)C(=O)COC(=O)c1c(C)cccc1C,CASP6,"enzyme activity, inhibitor",,,,kinact/KI,243000 M⁻¹ s⁻¹
C[C@H](N)C(=O)O,"Lysozyme C (LYZ, Gallus gallus, UniProt P00698)",sedimentation equilibrium AUC,,,,particle diameter,5.4 nm
COc1nc2c(C)cccn2c(=O)c1C=NOCc1ccc(-c2nc3cc(-c4ccccc4)ccn3c2Nc2ccc(C(=O)O)cc2)cc1 (mixture of isomers),TDP1,"enzyme activity, inhibitor",,"100 µM, unpurified compound",,inhibition,96.1%
Cc1cc(C)cc(COc2cc3c(cc2OCc2cc(C)cc(C)c2)C2CC(O)(Cc4cn(CCOCCOCCNC(=O)CCCCC5SCC6NC(=O)NC65)nn4)CC(C)N2CC3)c1 (stereo not drawn),PLIN3,biotinylated probe pull-down,,10 µM probe,relative to: heavy over light,SILAC ratio,2.03
CC(=O)N[C@@H](CC(C)C)C(=O)N[C@@H](CCC(=O)O)C(=O)N[C@H](C(=O)N[C@@H](CC(=O)O)C(=O)COC(=O)c1c(C)cccc1C)[C@@H](C)OCc1ccccc1,CASP6,"enzyme activity, inhibitor",,,,kinact/KI,351000 M⁻¹ s⁻¹
O=C(O)c1ccc(Nc2c(-c3ccc(CON=Cc4c(Cl)cncc4Cl)cc3)nc3cc(-c4ccccc4)ccn23)cc1,TDP1,"enzyme activity, inhibitor",,"100 µM, unpurified compound",,inhibition,59.5%
CCCCCC(O)/C=C/C=O (stereo not drawn),"Keratin, type I cytoskeletal 9 (KRT9, Homo sapiens, UniProt P35527)","ATP probe labelling, acylphosphate-ATP probe SILAC-ABPP",ZAK-transfected HEK293T proteome,"100 µM, 30 min","relative to: DMSO over compound, higher = stronger blockade",SILAC-ABPP ratio,20
O=C(O)Cc1cc2c(cc1C(=O)c1cccc(Cl)c1)OCO2,Gria1,"glutamate-evoked current, whole-cell patch clamp",HEK-293T,"concentration not given, pH 7.4, holding potential -60 mV, added: 10 mM glutamate",,current amplitude,113 ± 8 pA
CC(=O)N[C@@H](CC(=O)O)C(=O)N[C@H](C(=O)N[C@@H](C)C(=O)N[C@@H](CC(=O)O)C(=O)COC(=O)c1c(C)cccc1C)[C@@H](C)OCc1ccccc1,CASP6,"enzyme activity, inhibitor",,,,kinact/KI,25900 M⁻¹ s⁻¹
O=C(O)c1ccc(Nc2c(-c3ccc(CON=Cc4ccc(N5CCSCC5)cc4)cc3)nc3cc(-c4ccccc4)ccn23)cc1 (mixture of isomers),TDP1,"enzyme activity, inhibitor",,"100 µM, unpurified compound",,inhibition,43.7%
Cc1cnc2nc1Nc1cccc(c1)COC/C=C/COCc1cc(ccc1OCCN1CCOCC1)N2,"MAP2K7 (Homo sapiens, UniProt O14733)",,,"concentration not given, gene name MKK7",,percent of control,78%
N#Cc1cc(C=NOCc2ccc(-c3nc4cc(-c5ccccc5)ccn4c3Nc3ccc(C(=O)O)cc3)cc2)ccc1F,TDP1,"enzyme activity, inhibitor",,"100 µM, unpurified compound",,inhibition,39.4%
CN(C)S(=O)(=O)c1ccc(S(=O)(=O)N2CCC(n3c(=O)[nH]c4ccccc43)CC2)cc1,"DNA excision repair protein ERCC-6 (ERCC6, Homo sapiens, UniProt Q03468)",,,concentration not given,,ATPase activity,96.8%
CC(C)NCCCn1c(Sc2cc3c(cc2I)OCO3)nc2c(N)ncnc21,"HSP90AA1/HSP90B1 (Homo sapiens, UniProt P07900+P41148, E62I/S52A/Y61L)",ITC,,concentration not given,,binding stoichiometry,0.95 ± 0.1
CCCCCCCCCCCCC/C=C/C=O,PLIN3,"competitive isoTOP-ABPP, item: M6PRBP1 cysteine peptide","proteome, soluble, MDA-MB-231","100 µM, added: iodoacetamide probe","relative to: DMSO over compound-treated, higher = stronger cysteine blockade",isoTOP-ABPP competition ratio,1
CC(C=CC=C(C)C=CC1=C(C)CCCC1(C)C)=CC=O,"Rhodopsin (RHO, Homo sapiens, UniProt P08100, P23H)","immunostaining, item: opsin",COS-7 transfected,"20.00 µM, unit not given",relative to: surface over total stained cells,plasma membrane localization,0.91
N#CC(C=NOCc1ccc(-c2nc3cc(-c4ccccc4)ccn3c2Nc2ccc(C(=O)O)cc2)cc1)c1nc2ccccc2o1 (mixture of isomers),TDP1,"enzyme activity, inhibitor",,"100 µM, unpurified compound",,inhibition,96%
CC(C)Oc1cc(Cl)ccc1CNc1cc(-c2ccccc2)nc2ncnn12,"GPR3 (Homo sapiens, UniProt P46089)",cAMP reporter,human cells,10 nM,higher is more cAMP,cAMP luminescence,35600 a.u. and 48400 a.u. and 32800 a.u. and 18100 a.u. and 30000 a.u.
CCCCCC=CC=C1C(=O)C=CC1CC=CCCCC(=O)O (stereo not drawn),"Heterogeneous nuclear ribonucleoprotein F (Homo sapiens, UniProt P52597)","competitive isoTOP-ABPP, item: HNRPF cysteine peptide",Ramos soluble proteome,"100 µM, added: iodoacetamide probe","relative to: DMSO over compound-treated, higher = stronger cysteine blockade",isoTOP-ABPP competition ratio,2.4
CNc1cc(N)c(C(N)=O)c[n+]1C,"Nicotinamide N-methyltransferase, SAH-bound (NNMT, Homo sapiens, UniProt P40261)",product complex binding,,,,dissociation half-life,1.03 h
CCCCCCOc1ccc(C(=O)OCCN2CC=CCC2)cc1,CHRM5,,membranes,"100 µM, 15 h, added: carbachol",relative to: control,Emax,1.43 ± 0.06 fold
O=C1c2sc(-c3ccc(N4CCC(CO)CC4)nc3F)nc2CCN1c1cccnc1,TARDBP aggregated,radioligand binding,"human, FTLD-TDP type C sarkosyl-insoluble extract",102.04 nM,,specific binding,0.54 nM and 0.473 nM and 0.894 nM
O=C(O)c1ccc(Nc2c(-c3ccccc3)nc3ccc(CON=Cc4ccc(OC(=O)c5ccc6c(c5)OCO6)cc4)cn23)cc1,TDP1,"enzyme activity, inhibitor",,"100 µM, unpurified compound",,inhibition,25.1%
COc1ccc(C(=O)CC2(O)C(=O)Nc3c(Br)cc(C)cc32)cc1 (stereo not drawn),Uncharacterized protein,"inhibitor, coupled colorimetric",Trypanosoma brucei,,,Hill slope,-1.46
Cc1cc(C=NOCc2ccc3nc(-c4ccccc4)c(Nc4ccc(C(=O)O)cc4)n3c2)c(C)n1C1CCCC1,TDP1,"enzyme activity, inhibitor",,"100 µM, unpurified compound",,inhibition,16.8%
COC(=O)Cc1cc2c(cc1C(=O)c1cccc(I)c1)OCO2,Gria1,"glutamate-evoked current, whole-cell patch clamp",HEK-293T,"concentration not given, weighted tau, 1 ms pulse, added: glutamate",,deactivation time constant,2.5 ± 0.1 ms
O=S(=O)(c1cccc(Br)c1)N1CCC1c1ccccc1 (stereo not drawn),glpG,"enzyme activity, inhibitor, gel-based chimeric protein substrate",,,,IC50,inactive
CC(C)[C@@H]1NC(=O)[C@H](Cc2ccccc2)NC(=O)CSC[C@@H](C(N)=O)NC(=O)[C@H](CCC(=O)O)NC(=O)[C@H](CO)NC(=O)[C@H](Cc2c[nH]c3cccc(Cl)c23)NC(=O)[C@H](C2CCCCC2)NC(=O)[C@H](C(C)C)NC(=O)[C@H](Cc2ccc(O)cc2)NC(=O)[C@H](CC(=O)O)NC(=O)[C@H](Cc2c[nH]c3ccccc23)NC(=O)[C@H](Cc2ccc(N)nc2)NC(=O)[C@H](Cc2c[nH]c3ccc(Cl)cc23)NC(=O)[C@H](CCC(=O)O)NC1=O,"Interleukin-1 receptor-like 2 (IL1RL2, Homo sapiens, UniProt Q9HB29)","reporter gene (SEAP), inhibitor, HEK-Blue IL-36R reporter",HEK-Blue IL-36R cells,"0.0017 µM, 6 h, added: IL-36β 1 ng/mL",,remaining activity,93.1%
O=C1c2sc(-c3ccc(N4CCC(F)C4)nc3F)nc2CCN1c1cccnc1 (stereo not drawn),TARDBP aggregated,saturation autoradiography,"human, FTLD-TDP type A brain sections",12.5 nM,,specific binding,72.8 nM
